# Measured values from different studies.
# Every numbered part comes from another study and shows a few of its results, in no order.

# Set 1 — technique: RNA Bind-n-Seq; molecule type: RNA; sample: in vitro; tested at: 365 nM; baseline: no-protein control; reading: higher = stronger binding
# Target: RNA binding protein fox-1 homolog 2, RRM domain, GST-SBP tag (RBFOX2, Homo sapiens, UniProt O43251-10, residues 100-194)
# Notes: natural RNA segment, single round, ends assumed
# All sequences stand within: GGGAGUUCUACAGUCCGACGAUC … UGGAAUUCUCGGGUGCCAA
# Construct (chain): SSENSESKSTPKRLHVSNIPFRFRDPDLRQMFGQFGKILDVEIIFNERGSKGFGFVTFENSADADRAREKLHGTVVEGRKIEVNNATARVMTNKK
Sequence,RBNS enrichment (R)
AUAAACCACUAUAUAUUUUAUGAAUUACAUGUGGUUUUAUAUACACACACACACACACACACACACACACACACACACUCUGACAUUUUAUUACAAGCUGCAUGUCCUGA,8.95
UUAAUACUACAAAACUAGGAAAAUCAGAACUCAUGGCCAUUUCCUGCCCUCCUCCAACUUGUUAAAACAUGUUUAUUCUAAAGUUCGAAUGGAUAAAUUUGAGUAUAAAG,0.404
CUUUGUGGCUGUUUCUGUUUUUUACUGUAUGUAACUGGUAGCUGAUUGUACUAGGAUUAAAAACAAUAAACUUUCAUGAUAAAGCCGAUGAGAUUCAUGGGCUAUACAGC,0.791
CUGUUGUAUAUCAGACUUAAUUUUGUCAGCUGAUAGUAUAUAGUGACUGAUGAGUCAGUCACAGUUCCACUGACUCCCAGUUACUGUUCUGAUUAGUGGUAGUUAUUUGC,0.46
ACCCUCGUGCUAGGCGAUUCGUGUUACUAUACAAAACCGCAGAAGGAAUUGGGCCACCUGUGGCAUCAAGACUGCAACUUGACAAUCACGGUUUGCUGAUCUCAAACGGG,0.257
CUCCACCCCACACCUGAGUUCUUGCCUCCUCCUUUUGGGGACACCCAAAACACUGCUUGUGAGAAGGAAGAUGGAAGGUAAGUUCUGUCGUUCUUUCCCCAAUCCCCAGG,0.387
UGUGUACAGUAGAGUUUGUUGACACUCCGGUCAUUUCUGACCUGACUUGACCAUCGGUGGCCAUUUUCCAAGCCAGUCUGGUCAAGACUCAUGGCUGAACCUCUGAGACU,0.248
CUGCAACUGAGCCACCCACUCCCAAACAGGAAACCCUGGUGAAGGUUCAGGAAGCACGGAGAUUCUCUCCAACAAAGGUCCAGUUAGGAAACGACGCUGAGAGGAUGACG,0.204

# Set 2 — technique: protein binding microarray; molecule type: double-stranded DNA, one strand shown; sample: in vitro; tested at: not given; baseline: not given; reading: higher = stronger binding
# Target: Histone acetyltransferase KAT6A, winged helix 1, GST fusion (KAT6A, Homo sapiens, UniProt Q92794, residues 1-85)
# Notes: 8-mer, flanks averaged, mean of 2 arrays, mostly near background
# Residues (chain): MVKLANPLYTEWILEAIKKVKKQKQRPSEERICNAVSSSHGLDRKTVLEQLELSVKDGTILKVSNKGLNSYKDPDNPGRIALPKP
Sequence,E-score
AAGATCCT,-0.15
GTCGGAAC,0.174
AGTGACAC,0.0174
CCACCCGC,0.352
GCACATAA,-0.052
CGCATGGC,0.231
AGTTGAAG,-0.256
ACTTAGGG,-0.196
GAGAAGAC,-0.00741
ATGCGAGA,-0.0865
AAGGAGTA,-0.0487
CATACTGA,-0.171
GGGCAATA,0.0672
GCTCCCGA,0.106
CGTGCGAC,0.296
AGCTGGTA,-0.194
GGCCCTGA,-0.0531
GCTGGAAA,-0.0693
CCTTAACC,-0.0874
GTTTTCAA,-0.0372
ACGCCCTG,0.118
AGCAATAA,-0.283

# Set 3 — technique: protein-binding microarray; molecule type: double-stranded DNA, one strand shown; sample: in vitro; tested at: 250 nM; notes: 60-bp whole probe; added: salmon DNA 0.4 mg/ml; baseline: random background probes; reading: higher = stronger binding; all sequences stand within: GCCTAGCAC … GTCTTGATTCGCTTGACGCTGCTG
# Target: Interferon regulatory factor 7, full length, phosphomimetic (IRF7, Homo sapiens, UniProt Q92985, residues 1-503, S101K/S471D/S472D/S475D/S476D/S477D/S483D/S484D/S487D)
# Chain of UniProt Q92985 (whole entry, unmodified, looked up): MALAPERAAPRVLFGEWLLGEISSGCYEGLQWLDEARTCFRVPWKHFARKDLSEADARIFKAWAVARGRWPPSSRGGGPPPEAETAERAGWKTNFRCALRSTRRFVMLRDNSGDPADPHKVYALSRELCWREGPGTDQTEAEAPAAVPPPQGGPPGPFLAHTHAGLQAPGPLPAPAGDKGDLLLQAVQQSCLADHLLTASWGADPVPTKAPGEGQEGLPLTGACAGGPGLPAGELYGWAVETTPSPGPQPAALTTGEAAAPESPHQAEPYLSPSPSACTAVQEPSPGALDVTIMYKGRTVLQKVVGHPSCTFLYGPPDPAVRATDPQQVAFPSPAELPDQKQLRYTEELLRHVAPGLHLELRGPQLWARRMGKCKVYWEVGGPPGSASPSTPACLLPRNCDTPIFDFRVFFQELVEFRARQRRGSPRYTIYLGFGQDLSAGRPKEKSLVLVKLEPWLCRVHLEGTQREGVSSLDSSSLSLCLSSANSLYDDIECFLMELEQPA
Sequence,log fluorescence [z-score]
TGGAACCAGCGAACGAGCGGGTGCTAG,-0.752
GGAAATATTTACCTCTCACGGTGCTAG,0.292
TTAGGAATCGGGTTTCGGTTAGTGCTA,7.33
TTGGGTTTCCTTATCCTTTAGTGCTAG,1.97
GACGGTATCCTGCTCCTGACGTGCTAG,-0.401
TTAGGACTGCTTATCCTTTTGTGCTAG,0.202
CCCAGGGTCTGTTTGGGTCTGTGCTAG,-0.35
TTAGGTTGCGACACTGGGTTAGTGCTA,-0.365
GACAGACTGGGTTTCGGGACGTGCTAG,1.91
TTAGGCATCGGGTTTCGGTTAGTGCTA,5.56
TTAGGTTTCCTACTGCTATAGTGCTAG,1.19
TCATCTCTGGACTGTGTGACTGTGCTA,0.0162
TCATGTCCCTGTTTCTAACTGTGCTAG,2.14
TTAGGTATCGGCTATCGGTTAGTGCTA,-0.0916
GATGGTTTCCTTTCCCTGACGTGCTAG,5.12
TAAGGTATCGACACTGGGTTAGTGCTA,-0.113
TTAGGTAACGACACTGGGTTAGTGCTA,-0.354
TTAGAACTGAGACTGGAGTAGTGCTAG,-0.385
TTAGATTTCATTTTCGATTAGTGCTAG,4.24

# Set 4 — technique: universal PBM; molecule type: double-stranded DNA, one strand shown; sample: in vitro; tested at: not given; reading: higher = stronger binding
# Target: Sal-like protein 4, full length isoform B (SALL4, Homo sapiens, UniProt Q9UJQ4-2, residues 1-616)
# Notes: 8-mer, flanks averaged, mean of replicates
# Construct (chain): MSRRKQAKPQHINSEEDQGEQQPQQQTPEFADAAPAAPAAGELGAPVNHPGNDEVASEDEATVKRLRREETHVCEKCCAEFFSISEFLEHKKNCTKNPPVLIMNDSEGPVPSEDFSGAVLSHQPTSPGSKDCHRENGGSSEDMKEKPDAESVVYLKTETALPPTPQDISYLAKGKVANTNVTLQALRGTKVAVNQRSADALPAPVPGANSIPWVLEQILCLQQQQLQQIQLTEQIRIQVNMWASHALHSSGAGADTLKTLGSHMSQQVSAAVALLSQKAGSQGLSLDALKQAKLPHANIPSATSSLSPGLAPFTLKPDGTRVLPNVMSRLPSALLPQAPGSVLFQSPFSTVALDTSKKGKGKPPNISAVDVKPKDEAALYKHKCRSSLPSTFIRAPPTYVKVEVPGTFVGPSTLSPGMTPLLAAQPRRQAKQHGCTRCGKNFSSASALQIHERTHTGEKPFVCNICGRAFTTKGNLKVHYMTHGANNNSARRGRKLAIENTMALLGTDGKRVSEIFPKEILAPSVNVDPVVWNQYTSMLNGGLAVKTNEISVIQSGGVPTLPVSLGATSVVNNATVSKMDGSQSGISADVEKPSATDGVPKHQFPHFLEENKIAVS
Sequence,E-score
GTCACAGA,0.00032
ACGTCGCG,-0.152
AGTAATTA,0.349
ATCAACAC,0.105
AGTTTGAG,-0.046
AAATCTGT,0.215
ATACACCA,0.0896
GCATAGCA,0.0902
GGACAGCC,-0.355
CAATTCCG,-0.125
GCTGTATA,0.195
AGACACCT,-0.0685
ACGAGTAC,0.0374
AGCTGCTG,-0.19
AGTCCCTA,0.0309
CTAATCAG,0.0483
GAATAGAC,0.0569
ACCGTTAA,0.137
TAAGTCAA,0.196
ACGAGCCG,-0.229
CCGATTGA,-0.115
ACTTGAAC,0.0878
GCAAAGTA,0.155
AACGGTGC,-0.0568
ACCCAAAT,0.0996

# Repeated from above (set 3):
Sequence,log fluorescence [z-score]
TTGGGTTTCCTTATCCTTTAGTGCTAG,1.97
TAAGGTATCGACACTGGGTTAGTGCTA,-0.113
GGAAATATTTACCTCTCACGGTGCTAG,0.292
TTAGGTAACGACACTGGGTTAGTGCTA,-0.354
